Measured values pooled from the literature.
Numbered parts are unrelated; each lists some results of a single study. Changes are numbered by the printed parent chain.

Sample 1
Target: RNA binding protein fox-1 homolog 2, RRM domain, GST-SBP tag (RBFOX2, Homo sapiens, UniProt O43251-10, residues 100-194)
Technique: RNA Bind-n-Seq
Form: RNA
Medium: in vitro
Concentration: 365 nM
Notes: natural RNA segment, single round, ends assumed
Baseline: no-protein control
Direction: higher = stronger binding
Quantity: RBNS enrichment (R)
Constant ends, left off below: GGGAGUUCUACAGUCCGACGAUC … UGGAAUUCUCGGGUGCCAA
Construct (chain): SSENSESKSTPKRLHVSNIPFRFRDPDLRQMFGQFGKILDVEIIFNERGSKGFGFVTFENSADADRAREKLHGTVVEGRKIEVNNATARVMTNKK
Oligonucleotide = CUGUAUAUAUCAGAUGAGCAGUGAUGACUUCUAUAACUGUUGGCUUUAAUAUUUUUCAUUUAGCUAUAUAAUAAAAUUCACUAGGAAAAUCAUUUAAAGUUGAAAGAAAA; result = 0.698
Oligonucleotide = CGCCCCUUGUGCUCGAAGUGUUUGGCAAUGAGAUCUCCUGACUAGGACAGCCUGUGGCGGUGCCUGGGUGGGGCUGCUCCUCCAGGGCCACGUGCCAGGCCCGGGGCUGG; result = 1.56
Oligonucleotide = CCUCUGCCUCCCAGGUUCAAGCGAUUCUCCUGCCUCAGCCUCCAGAGUAGCUAGGAUUACAGAUACGUGCCACCAUACCCGGCUAAUUUUUAUAUUUUUAGAGACAGGGA; result = 0.346
Oligonucleotide = AAAGGUAUAUACUUUUAGGAGCCUAAAAAACAUUUCCAAACUAGCCCAAGCUAUCUCAACUACAGGAGCGGAGGGGGACGAAUGAUUGUGAACACAAAGUCUGACUUGAA; result = 0.344
Oligonucleotide = UCGCCUGGAAAAAAGUGCCCAAGCUGCUGACGCAAAAAGAAAAAAAAAAAGAAAGAAAGAUGCUGCUCAUUUGCAUGCUCACUUACAUAUAUUUGCAUGUUCACUGACCC; result = 6.11
Oligonucleotide = CUCCCCUAUCACUUCAAGUGUUUAUACCUGAGUUUCUUAGGAAGAAAGUAAGUCUGAUGGCUUGUUGUUUUGCUGUAGUUGUUUUGAAAAGCCGAAAUCAAAUGGUCAAG; result = 0.987
Oligonucleotide = CCCUUUUGGGGCAUGCACUUUCUUUCCUUUCUCAAAAUAAUGUUAUAUGUGGCCACACUGAUGUUCACCUUUACGUCCAGGGUCUUUGUGCCUUGUCUCUACUCCCUCUC; result = 0.492
Oligonucleotide = UAACUCCAACAGAUGUAGCCAGCAGCCUGGGCACUUGUGUUAGUGGUGCCGUUUGCUGGCUUCUCCACUAGGGUUUCAGGACAGACUACCUAGGAACUGCCUCAACCUCC; result = 2.11

Sample 2
Target: RING finger protein unkempt homolog, zinc fingers 1-6, GST-SBP tag (UNK, Homo sapiens, UniProt Q9C0B0, residues 30-357)
Chain of UniProt Q9C0B0 (30-357, looked up): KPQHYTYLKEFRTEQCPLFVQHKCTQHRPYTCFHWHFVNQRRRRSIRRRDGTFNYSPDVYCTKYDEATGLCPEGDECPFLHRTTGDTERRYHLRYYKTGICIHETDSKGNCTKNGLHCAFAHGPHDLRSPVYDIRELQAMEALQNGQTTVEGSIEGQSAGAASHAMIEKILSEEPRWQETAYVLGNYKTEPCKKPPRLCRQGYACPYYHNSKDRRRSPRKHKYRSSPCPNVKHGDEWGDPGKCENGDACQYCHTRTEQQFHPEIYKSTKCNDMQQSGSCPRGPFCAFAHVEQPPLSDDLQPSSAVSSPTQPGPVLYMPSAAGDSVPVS
Technique: RNA Bind-n-Seq
Form: RNA
Medium: in vitro
Concentration: not given
Notes: RNA with constant flanks, human and mouse sites, ends assumed
Baseline: input RNA pool
Direction: higher = stronger binding
Quantity: bound/input enrichment
Constant ends, left off below: GGGAGUUCUACAGUCCGACGAUC … CAACAGAGGAUUGAGCAUCA
Oligonucleotide = UGGUCUUCAGAGAGCAACUAUCCUCCCCAGUACUUGAUUCUAAAGCUCGAAAGGCCUGCUAUAGUUCAGAAUAUCACAUUUGGAAAAUAUGAGAAAACUCAUGUUUGCAAUUUGAAGAAA; result = 0.16 ratio
Oligonucleotide = GGCUCUGUGAAGAAAGUCAACGAAUCCUCACUAAAUUGGCCCCAGUUGGAGAAUAUCGGCAACUUCAUUAAAGCUAUCCAGGCUUACGGUAUGAAGCCCCAUGAUAUAUUUGAAGCAAAC; result = 0.187 ratio
Oligonucleotide = ACCAACAAAGUUGCUUCCCAGAAAGGAAUGAGCGUGUAUGGGCUUGGGCGGCAAGUAUAUGACCCCAAGUACUGUGCCGCACCCACAGAACCUGUCAUUCACAACGGAAGCCAGGGCACG; result = 0.154 ratio
Oligonucleotide = CUGAAAUAAAUCAGCUUUAAACCUGCUUUUUAAAAAUAUCUGGGUUGGAAUUUGCCCCUGACAAAUAAUAAAAUGAUGAGUGAUGCAAGUGACAUGUUGGCUGCAGCGUUGGAGCAGAUG; result = 0.767 ratio
Oligonucleotide = AUUGUAUAUUAUGAACAGCUGACUAAACAUAAUCACCACAGAAUAAGACAAUAUCAUAUAAUAGAUUAAAAUGUUGUGCAUCCUUUUGUCUGGUUAAAAAUUUUUUAAAAAAACUUCAAU; result = 11.6 ratio
Oligonucleotide = CCAAAACUGAAACUGUGGAUGGCAGCCAUGAAGGAAGAUCCCACAGUCUCAGCCCUGCUUACUAGUGAGAAAGACUGGCAAGGUUUCCUAGAGCUCUACUUACAGAACAGCCCUGAGGCC; result = 0.115 ratio
Oligonucleotide = UACAGAAAUGCUCUGUUCUACCGCAGCAACAUGGCUGACAUGCUGUAUAAUCUAGGGUUGCUGCUCCAAGAGAACAGCAGGUUUGCAGAAGCUCUUCACUAUUACAAACUGGCCAUUGGG; result = 0.129 ratio
Oligonucleotide = GAAACAUUUAAAUUUAAAGAAGCUGUUGUUUUAGGGAGCACGGACUUCCUAGAAGAUGAUAUAGAAAAAAUUGUAGAAGAACUGGGAAAAGAAUACAAAGGCAAUGCUUAUCAUUUAAUG; result = 1.46 ratio

Sample 3
Target: ABI1, truncated, D143A, DHFR fusion (Arabidopsis thaliana)
Technique: DHFR PCA, deep sequencing
Medium: yeast
Notes: methotrexate growth selection, single substitutions
With: (+)-ABA 0.39 µM
Baseline: wild-type fitted maximum
Direction: higher = stronger binding
Quantity: relative binding score
Starting sequence: PYL1, truncated, DHFR fusion (Arabidopsis thaliana); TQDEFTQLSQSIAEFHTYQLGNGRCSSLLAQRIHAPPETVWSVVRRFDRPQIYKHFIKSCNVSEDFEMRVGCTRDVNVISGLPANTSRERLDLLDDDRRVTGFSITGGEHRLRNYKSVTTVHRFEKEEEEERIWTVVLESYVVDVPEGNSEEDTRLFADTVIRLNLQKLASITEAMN; partner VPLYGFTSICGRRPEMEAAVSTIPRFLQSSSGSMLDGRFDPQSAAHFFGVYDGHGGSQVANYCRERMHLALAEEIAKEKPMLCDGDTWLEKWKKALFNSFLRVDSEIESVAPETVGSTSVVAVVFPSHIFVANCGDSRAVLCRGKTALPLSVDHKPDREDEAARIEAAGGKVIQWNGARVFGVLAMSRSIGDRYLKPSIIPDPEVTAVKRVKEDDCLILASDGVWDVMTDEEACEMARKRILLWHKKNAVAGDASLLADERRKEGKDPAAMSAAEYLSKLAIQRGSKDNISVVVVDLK
Change = S150V; result = 5.26%
Change = T135S; result = 27.7%
Change = C72Q; result = 52.7%
Change = L82P; result = -0.607%
Change = A84I; result = 25.1%
Change = P36G; result = 0.537%
Change = E14I; result = -3.52%
Change = T120Y; result = -7.96%
Change = F5T; result = 17.9%
Change = E152D; result = 37.4%
Change = N114M; result = 3.3%
Change = E89M; result = -4.51%
Change = H34R; result = 41.4%
Change = V118I; result = 36.2%
Change = T39Q; result = 23.3%

Sample 4
Target: Histone acetyltransferase KAT6A, both winged helices, GST fusion (KAT6A, Homo sapiens, UniProt Q92794, residues 1-181)
Technique: protein binding microarray
Form: double-stranded DNA, one strand shown
Medium: in vitro
Concentration: not given
Notes: 8-mer, flanks averaged, mean of 2 arrays, mostly near background
Baseline: not given
Direction: higher = stronger binding
Quantity: E-score
Residues (chain): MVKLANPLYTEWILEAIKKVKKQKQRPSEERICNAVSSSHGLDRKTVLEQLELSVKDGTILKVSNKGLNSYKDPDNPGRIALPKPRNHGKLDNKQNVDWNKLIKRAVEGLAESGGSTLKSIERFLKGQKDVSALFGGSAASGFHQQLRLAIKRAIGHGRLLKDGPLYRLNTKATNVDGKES
Oligonucleotide = ATCCACAA; result = -0.174
Oligonucleotide = GAGCGTCA; result = 0.0717
Oligonucleotide = ACGGCCAT; result = 0.138
Oligonucleotide = GATACGAC; result = 0.0486
Oligonucleotide = AAGTACGG; result = 0.229
Oligonucleotide = CCGCATCG; result = 0.192
Oligonucleotide = CACGGCGA; result = 0.336
Oligonucleotide = AATCAGCA; result = -0.11
Oligonucleotide = GGGGGTGA; result = -0.0656
Oligonucleotide = GTTAAAAC; result = 0.134
Oligonucleotide = GAAAGTGC; result = -0.0199
Oligonucleotide = ACGAACAG; result = 0.0726
Oligonucleotide = TCAGCGAA; result = -0.0191
Oligonucleotide = CCGACGAA; result = 0.159
Oligonucleotide = AAGATATC; result = -0.115
Oligonucleotide = TGTGGCAA; result = 0.00717
Oligonucleotide = ACATGCCG; result = 0.294
Oligonucleotide = CTTTTTGA; result = -0.132
Oligonucleotide = CGTTTCTA; result = 0.0837
Oligonucleotide = GCGGACAC; result = 0.228
Oligonucleotide = ATTGCGCA; result = 0.266
Oligonucleotide = TACACCTA; result = -0.202

A few entries again (sample 4):
Oligonucleotide = CCGCATCG; result = 0.192
Oligonucleotide = CACGGCGA; result = 0.336
Oligonucleotide = AATCAGCA; result = -0.11
Oligonucleotide = GGGGGTGA; result = -0.0656
Oligonucleotide = GTTAAAAC; result = 0.134
Oligonucleotide = GAAAGTGC; result = -0.0199
Oligonucleotide = ACGAACAG; result = 0.0726
Oligonucleotide = TCAGCGAA; result = -0.0191
Oligonucleotide = CCGACGAA; result = 0.159
